{"data": "Results of several laboratories", "note": "Parts stem from different laboratories: compare values within a part only."}
{"data": "Study 1", "target": "Histone acetyltransferase KAT6A, winged helix 1, GST fusion (KAT6A, Homo sapiens, UniProt Q92794, residues 1-85)", "method": "protein binding microarray", "form": "double-stranded DNA, one strand shown", "matrix": "in vitro", "tested at": "not given", "setting": "8-mer, flanks averaged, mean of 2 arrays, mostly near background", "reference": "not given", "direction": "higher = stronger binding", "Residues (chain)": "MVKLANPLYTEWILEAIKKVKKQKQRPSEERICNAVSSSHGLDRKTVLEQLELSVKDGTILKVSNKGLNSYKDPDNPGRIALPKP"}
{"Strand": "GACTGTGA", "E-score": -0.214}
{"Strand": "GATTTAGC", "E-score": -0.0291}
{"Strand": "AACCACCC", "E-score": 0.0398}
{"Strand": "CCTATTAA", "E-score": -0.223}
{"Strand": "ACGTTGGC", "E-score": -0.104}
{"Strand": "AGACCAAT", "E-score": -0.178}
{"data": "Study 2", "target": "Prothrombin, mature alpha-thrombin (F2, Homo sapiens, UniProt P00734)", "method": "aptamer microarray, sandwich", "form": "DNA with 2'F-ANA", "matrix": "in vitro", "tested at": "200 nM", "setting": "whole 15-mer aptamer, many near background", "added": "Cy3 exosite-II aptamer, 400 nM", "direction": "higher = stronger binding", "strand": "GGTTGGTGTGGTTGG"}
{"Modification": "2'F-ANA at 8 9 10 12", "mean fluorescence intensity [a.u.]": 212}
{"Modification": "2'F-ANA at 1 2 4 5 7 11 13 14 15", "mean fluorescence intensity [a.u.]": 61.3}
{"Modification": "2'F-ANA at 1 3 5 6 8 10 11 12", "mean fluorescence intensity [a.u.]": 48.7}
{"Modification": "2'F-ANA at 1 2 4 5 9 10 11 12 13 15", "mean fluorescence intensity [a.u.]": 48.4}
{"Modification": "2'F-ANA at 3 6 7 10 12 13 14 15", "mean fluorescence intensity [a.u.]": 359}
{"data": "Study 3", "target": "Myc proto-oncogene protein, bHLH-zipper, MAX partner unstated (MYC, Homo sapiens, UniProt P01106, residues 368-449)", "method": "protein-binding microarray", "form": "double-stranded DNA, one strand shown", "matrix": "in vitro", "tested at": "not given", "setting": "k-mer, scored over probes, only values ≥0.25", "direction": "higher = stronger binding", "chain of UniProt P01106 (368-449, looked up)": "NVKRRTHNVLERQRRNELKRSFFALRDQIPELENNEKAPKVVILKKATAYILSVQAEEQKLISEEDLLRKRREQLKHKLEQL"}
{"Strand": "ACCACGAT", "E-score": 0.373}
{"Strand": "ATGCGGCC", "E-score": 0.286}
{"Strand": "ACGCTGCC", "E-score": 0.282}
{"Strand": "AGCGTGGC", "E-score": 0.423}
{"Strand": "ACATGCTA", "E-score": 0.359}
{"Strand": "ACGTGTTA", "E-score": 0.41}
{"data": "Other studies, line by line"}
{"Substance": "PhoQ, residues 284 288 289 292 302 303 ALVSVA", "target": "PhoP, residues 12 14 15 18 19 NYFTV (Escherichia coli, UniProt P23836)", "assay": "Sort-seq, refers to: YFP reporter", "test system": "E. coli", "conditions": "PhoQ-PhoP variant library, added: 10 µM Mg2+", "scale": "reference: high Mg2+ state, higher = stronger signaling", "endpoint": "fold induction", "result": 0.877}
{"note": "For quick reference, copied from above (study 2):"}
{"Modification": "2'F-ANA at 1 2 4 5 9 10 11 12 13 15", "mean fluorescence intensity [a.u.]": 48.4}
{"Modification": "2'F-ANA at 3 6 7 10 12 13 14 15", "mean fluorescence intensity [a.u.]": 359}
